Measurements gathered from unrelated publications.
Every numbered part comes from another study and shows a few of its results, in no order. Changes are numbered by the printed parent chain.

Block 1
Target: RING finger protein unkempt homolog, zinc fingers 1-6, GST-SBP tag (UNK, Homo sapiens, UniProt Q9C0B0, residues 30-357)
UniProt Q9C0B0, sequence (30-357, looked up): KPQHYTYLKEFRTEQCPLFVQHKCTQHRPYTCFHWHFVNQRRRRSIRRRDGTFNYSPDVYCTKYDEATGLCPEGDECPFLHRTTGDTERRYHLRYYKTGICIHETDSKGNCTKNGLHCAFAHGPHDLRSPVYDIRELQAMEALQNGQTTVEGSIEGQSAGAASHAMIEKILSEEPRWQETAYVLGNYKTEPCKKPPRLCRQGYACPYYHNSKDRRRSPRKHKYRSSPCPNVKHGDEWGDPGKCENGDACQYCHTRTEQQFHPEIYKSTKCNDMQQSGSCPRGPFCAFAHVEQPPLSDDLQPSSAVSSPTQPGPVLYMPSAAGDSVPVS
Technique: RNA Bind-n-Seq
Form: RNA
Sample: in vitro
Concentration: not given
Setting: RNA with constant flanks, human and mouse sites, ends assumed
Reference: input RNA pool
Direction: higher = stronger binding
Measurement: bound/input enrichment
All sequences stand within: GGGAGUUCUACAGUCCGACGAUC … CAACAGAGGAUUGAGCAUCA
UUGCUAUGUUUUUAUCAGUUCGCAGGAACUUUAUAUUAAUGGAUAUUGAGCCUUUGCUCUGGGUGUGUUUGUAUAUAGAGAGAAACAUAUAUAGUGUACAUACUAUCUAAUGUAUAUUAA: 0.59 ratio
UUUCAGCAACUGGUCAAUUUUUCAGAAGGAGGACCAGGCUCUAAUUCUACUGGCAGUGAAGUAGCAUCGAUGUCCUCGCAGCUCCCAGAUACACCCAACAGCAUGGUAGCCAGUCCUAUU: 0.197 ratio
UAACAUUUUUUUAAAAUAUUGAUUGAUUGAUUGAUUGAUUCUAUGUAUGUGAGUACACUGUAGCUGUACAGAUGGUUGUGAGCCUUCAUGUGGUUGUUGGGGAUUGAAUUUUAGGACCUC: 1.33 ratio
GUGAGCCACCGUGCCUGGCCGACGAUAUAACUUUUAAAGAACCAACCUUUGGUUUUAUUUUUCUCAAUUGUUUAUAUAAUUAAUUUCUGUUAUUUUCUUUCUUCUAUUUAGCUUGAGUCU: 16 ratio
GAGAUGCUAGCACACAGGGCAGUCCUGGCUUGCUGUAGCCCCUAUCUAUUUGAAAUCUUCAAUAGUGACAGUGACCCUCAUGGAGUUUCUCAUGUGAAGUUGGAUGAUCUCAAUCCAGAA: 0.349 ratio
AUAUCUUUCGUUUUGGCUUGGUUCGAGGAAGGGGAAGAAACGAUUACAGCCUUUGUAGAGCCGUUUGUAAUUCUGCUUAUCUUGGUAGCCAAUGCAAUCGUGGGUGUGUGGCAGGAAAGA: 0.227 ratio
CGCGCCAUUCAGGGAGCAACAUCACACCAUUUAGGCCAGAAUUUCUCCAAAAUGUGUGAAAUAGUUUUUGAAGAUCCCAAGACACCAGGAGAAAAGCAGUUUGCAUACCAGUGCUCCUGG: 0.402 ratio
AUGAUGAUUUUCAUUGAAGCAUCUUCAGAAAAUCCUUGUAGUCUUUACUCUUCUGUCUGUUACAGCCCCCAAGCAGAAAAAGUUUACAAGUUAUGUAGCCCACCAGCUGAUUUGCAUAAG: 0.252 ratio
AUCGCUCAAGAGUACUAUUUAGAACUGAAGGAUGUAAAUUCCCUUCUCAAAUAUUUUGUUACUUUUGAAGUCAAAAUCUUACCUCCAGAAGACAGGAAAGCAAUACAAUCAAAAUGAAGA: 0.186 ratio
CCUUAAUUAGCAGGUACUGUGUAUUUCAUCAGGAAGUCUUUGUAGUUCUAGAUACUCAGCUAGUAUUUUGGAAUUUGUAUAAUGAGAAUGUUUAGAAGCCAUCUAUAUGGCUUUUUUAAA: 9.22 ratio
GGCCCCAGCCCCGGCCGCUGUGGUGACUCCGCCGCGCCUCGCCGUCGCCCCCGUGCCGCCCGCCGCCCCCGCCGCCCCCGCCGCCGGGGACAUGUCUAACCCCGGAGGCCGGAGGAACGG: 1.32 ratio

Block 2
Target: RNA binding protein fox-1 homolog 2, RRM domain, GST-SBP tag (RBFOX2, Homo sapiens, UniProt O43251-10, residues 100-194)
Technique: RNA Bind-n-Seq
Form: RNA
Sample: in vitro
Concentration: 365 nM
Setting: natural RNA segment, single round, ends assumed
Reference: no-protein control
Direction: higher = stronger binding
Measurement: RBNS enrichment (R)
All sequences stand within: GGGAGUUCUACAGUCCGACGAUC … UGGAAUUCUCGGGUGCCAA
Target sequence (chain): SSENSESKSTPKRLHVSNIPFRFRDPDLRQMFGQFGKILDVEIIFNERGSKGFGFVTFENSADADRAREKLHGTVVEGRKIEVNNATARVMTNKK
AAGACCUUUGUUUUAAGACUUCCACACACCAAGGCUACAAUGACUGUUAACCUGGAGGAAGUCUCUGGUAUGGAGUUCUGAGAGCUUAAGAGCUAAACAUGAGUUUAGAC: 0.354
CUUCAUCCAGGGGCUGGGCUUCGGGUCUUCAGGAGUGGGCCUUGGCUGGUGCUGGUGCCAUGGACUCUGCCCAGAGCCUUCUUGUUUAUGAUCAGCUCCAGCUACCUGGG: 0.447
ACUCCUUUUCCUGUCCCGUUUCCAGUCCCACUGAGCCAUUCACUUCUGCUGAACCAUUUUUCUUAGGAUGCAGCCGUCUCACUCCCUUGUCCUGUAAAUCGUGUAUUCAU: 0.798
AUAUACAAGUGUAUGAUGUACAUUUUAGUUCUUAACUUUUUUAUGGUUUCUAAUAUGUAUGACCAAUGUAGCCAUUGCUUUGAAAUGUAAAUAUAAACACGUCCUAUCCG: 0.561
UCUUUGCUGUCAAAAGCUACAUUGCACCCACAUGUCUGGAGUUCACACCACAAAUCUGCAGUUCAUUCUGUUUAUCCCAGGCAUUAAAUUCCUAAUUUCUCUAGAUAUUU: 0.33
CCUGCACACGUACAGGUCAACAGCCUUCUCCCUCCUAAGAUGGACUUAAUUCAGACAGCCACUGCUUUCAGCCCCGAUUUUGGCCAGAAAGAAAAAAUACUUAUUUUUAC: 0.553
GUUUAGAAAUUGCUCAAUAAGUCAUUUGGGGUUUGGCAUCCUGCCCAGCCACUUCCCAAACAUGAAGACCUCUCUGUUGCUUUAUGUUGUACAUGCCCCAUAGCCAUCCC: 1.14
UGCUCUCUGGCUAAAGUCACGGUCAAACCUAAACACCGAGCCUCAUUAACCCAAGUGAACCAACCAAAGUCACCAGUUCAGAAGUGCUAAGCUAAUAGGAGUCUGACCCG: 0.25
ACCUCAUUAAAUGGUGAUUUCUUGCUAAGCUCCAGCCCGAGUGGUCUCCUCUCAGCUUCUAAUUUUGUGCUCUUUCCUGCCCUUUUCCUGGGCCUUCUCAGCUCUCCACC: 0.661
AUGUCCCUUGUGCAUUGAGUGCAUCCCCGCUGGUGACUAAGCUCGCAGCAAGCGGCUACCCCCCGAUCUGCAAAAGGGCCUCUCCCUUUGUGUUCUAUACAUUGUGAAUC: 0.601
UUUUAAAUAUGUCUAAAAAUAAAGUAAUCUGGGGACUGAGUUGAAAUGUCAGUGAACAUGAGUAUUACUUCAAAAUCUUACAUCACUUGAUGCUAUAUUCAUUUAUGUCU: 0.543
AGUGUUUGCUUCCCGUGGAGCCAAGCGCCCAAGACUCUCCGUAUCCUUCACCCUGACAGUUUAACUUCAGCGUUUCUCUGUGCAGUUGCGGUCACCAUGGGUGAGCACUG: 0.288

Block 3
Target: Ras GTPase-activating protein-binding protein 1, full length (G3BP1, Homo sapiens, UniProt Q13283)
UniProt Q13283, sequence (whole entry, looked up): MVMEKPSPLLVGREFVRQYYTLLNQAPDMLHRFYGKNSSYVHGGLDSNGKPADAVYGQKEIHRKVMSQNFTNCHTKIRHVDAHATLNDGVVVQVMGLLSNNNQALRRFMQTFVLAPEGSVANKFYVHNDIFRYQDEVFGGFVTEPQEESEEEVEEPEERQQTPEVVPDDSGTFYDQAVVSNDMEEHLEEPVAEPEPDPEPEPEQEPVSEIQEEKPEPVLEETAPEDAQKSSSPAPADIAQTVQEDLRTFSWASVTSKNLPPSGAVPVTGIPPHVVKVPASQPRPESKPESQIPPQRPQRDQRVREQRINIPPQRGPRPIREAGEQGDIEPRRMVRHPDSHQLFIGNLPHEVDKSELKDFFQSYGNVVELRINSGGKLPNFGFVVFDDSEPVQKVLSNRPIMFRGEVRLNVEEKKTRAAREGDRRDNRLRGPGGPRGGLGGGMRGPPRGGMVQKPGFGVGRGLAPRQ
Technique: RNA Bind-n-Seq
Form: RNA
Sample: in vitro
Concentration: 200 nM
Setting: whole 134-nt RNA, ends assumed
Together with: 150 mM LiCl
Reference: input library
Direction: higher = stronger binding
Measurement: log2 enrichment
Library: 7-deaza-guanosine replaces G
All sequences stand within: GGGAGUUCUACAGUCCGACGAUC … UGGAAUUCUCGGGUGUCAAGG
GCAGGAAGUAAAAACAAAUGGAAACGCUUCGGAUAGUGGCAGGGGUGGGGGUUGCUAAGGAAAGGGUGGGAUGGGAGUGGGUAAAGAGUU: 0.16
CUCAAGUCCUGUGCUACACAUCGUAUGUACCGAAUCGGGGAAGGAAGGGAAGGAAAGUAUUAUGUUACGCCGUUCGGAUCUGCACUUCCA: -0.806
UAACUUUAGAGGAGGAUCUGAUGGAUAUGGCAGUGGACGUGGAUUUGGGGAUGGCUAUAAUGGGUAUGGAGGAGGACAUGGAGGUGGCAA: 0.0845
UGGCCCUGGUGGUAUGCGGGGAGGAAGAGGUGGCCUCAUGGAUCGUGGUGGUCCCGGUGGAAUGUUCAGAGGUGGCCGUGGUGGAGACAG: 0.651
UUUGACGCGGUGUGUUACGUGGGGGAGAGAAUAAAACUCCAGCGAGAUCCGGGCCGUGAACGAAAGCAGUGACGGAGGAGCUUGUACCAC: 0.566
CUGUGCUACACAUCGUAUGUACCGAAUCGGGAAAAAAAGGGGAAAAAAAGGGAAAAAAAGGAAAGUAUUAUGUUACGCCGUUCGGAUCUG: 0.0598
CUCAAGUCCUGUGCUACACAUCGUAUGUACCGAAUCGGGAGGGAGGGUUUGGGAAAGUAUUAUGUUACGCCGUUCGGAUCUGCACUUCCA: -0.0696
CUGUGCUACACAUCGUAUGUACCGAAUCGGGGAAAAAAAGGGGUUUGGGGUUUUUUUGGGGAAAGUAUUAUGUUACGCCGUUCGGAUCUG: -0.234
AGUCCUGUGCUACACAUCGUAUGUACCGAAUCGGGAAAAAGGGAAAAAAAGGGAGGGAAAGUAUUAUGUUACGCCGUUCGGAUCUGCACU: -0.516
UAACUUUAGAGGAGGAUCUGAUGGAUAUGGCAGUGGACGUGGAUUUGGGGAUGGCUAUAAUGGGUAUGGUGGAGGACCUGGAGGUGGCAA: -0.0696
GUCCUGUGCUACACAUCGUAUGUACCGAAUCAAAUUUUUAAAUUUUUUUAAAUUUAAAAAAGUAUUAUGUUACGCCGUUCGGAUCUGCAC: -2.93

Block 4
Target: CCNA1, cyclin fold, Cln2 fusion (human)
Technique: yeast growth competition, sequencing
Sample: yeast
Setting: weak parent motif
Reference: not given
Direction: higher = stronger binding
Measurement: normalised enrichment score
Starting sequence: BRCA2 docking peptide (human); PSIKRNLLNEFDR; partner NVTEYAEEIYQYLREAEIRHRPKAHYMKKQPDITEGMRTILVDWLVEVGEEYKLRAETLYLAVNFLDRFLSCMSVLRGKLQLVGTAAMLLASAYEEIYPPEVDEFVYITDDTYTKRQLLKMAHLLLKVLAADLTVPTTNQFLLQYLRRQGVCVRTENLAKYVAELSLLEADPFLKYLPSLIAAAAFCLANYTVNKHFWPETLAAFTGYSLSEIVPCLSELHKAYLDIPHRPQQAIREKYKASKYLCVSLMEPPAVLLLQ
R13K: 0.242
S2C: 0.147
R13Y: 0.624
P1H: 0.802
L8K: 0.38
L8G: 0.449
K4C: 0.874
L8P: -0.0743
R5H: 0.216
P1G: 0.595
K4V: 0.564
L8I: 0.558
F11H: 0.0798
P1F: 0.437
F11N: 0.161
L7D: 0.081
R5Y: 0.145
L8E: 0.391
R5F: -0.052

Some of these lines once more (block 3):
GUCCUGUGCUACACAUCGUAUGUACCGAAUCAAAUUUUUAAAUUUUUUUAAAUUUAAAAAAGUAUUAUGUUACGCCGUUCGGAUCUGCAC: -2.93
CUCAAGUCCUGUGCUACACAUCGUAUGUACCGAAUCGGGGAAGGAAGGGAAGGAAAGUAUUAUGUUACGCCGUUCGGAUCUGCACUUCCA: -0.806
UAACUUUAGAGGAGGAUCUGAUGGAUAUGGCAGUGGACGUGGAUUUGGGGAUGGCUAUAAUGGGUAUGGUGGAGGACCUGGAGGUGGCAA: -0.0696
AGUCCUGUGCUACACAUCGUAUGUACCGAAUCGGGAAAAAGGGAAAAAAAGGGAGGGAAAGUAUUAUGUUACGCCGUUCGGAUCUGCACU: -0.516
UUUGACGCGGUGUGUUACGUGGGGGAGAGAAUAAAACUCCAGCGAGAUCCGGGCCGUGAACGAAAGCAGUGACGGAGGAGCUUGUACCAC: 0.566
GCAGGAAGUAAAAACAAAUGGAAACGCUUCGGAUAGUGGCAGGGGUGGGGGUUGCUAAGGAAAGGGUGGGAUGGGAGUGGGUAAAGAGUU: 0.16
CUGUGCUACACAUCGUAUGUACCGAAUCGGGAAAAAAAGGGGAAAAAAAGGGAAAAAAAGGAAAGUAUUAUGUUACGCCGUUCGGAUCUG: 0.0598
CUGUGCUACACAUCGUAUGUACCGAAUCGGGGAAAAAAAGGGGUUUGGGGUUUUUUUGGGGAAAGUAUUAUGUUACGCCGUUCGGAUCUG: -0.234
